Results collected from several papers.
A part holds a random share of what one study measured. Substitutions count along the parent as printed.

Series 1 — technique: DHFR PCA, deep sequencing; matrix: yeast; with: (+)-ABA 200 µM; baseline: wild-type fitted maximum; reading: higher = stronger binding; quantity: relative binding score
Target: ABI1, truncated, D143A, DHFR fusion (Arabidopsis thaliana)
Notes: methotrexate growth selection, single substitutions
Starting sequence: PYL1, truncated, DHFR fusion (Arabidopsis thaliana); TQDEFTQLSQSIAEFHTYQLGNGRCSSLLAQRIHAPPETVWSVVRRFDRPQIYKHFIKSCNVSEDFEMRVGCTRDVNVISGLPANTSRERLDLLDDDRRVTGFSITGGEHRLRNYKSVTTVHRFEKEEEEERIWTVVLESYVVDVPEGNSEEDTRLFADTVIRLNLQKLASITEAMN
L138P: -9.09%
T86L: 89.7%
L164Y: 91.7%
S9Y: 87.8%
D159H: 45.9%
R45S: 85.2%
L28Y: 79.5%
S104L: 33.6%
C60W: 2.77%
G21V: 99.4%
E127A: 101%
S117H: 25.6%
R132H: 101%

Series 2 — target: CCND3, cyclin fold, Cln2 fusion (human); technique: yeast growth competition, sequencing; matrix: yeast; notes: weak parent motif; baseline: not given; reading: higher = stronger binding; quantity: normalised enrichment score
Starting sequence: SCAPER docking peptide (human); SNARRSLNFGGST; partner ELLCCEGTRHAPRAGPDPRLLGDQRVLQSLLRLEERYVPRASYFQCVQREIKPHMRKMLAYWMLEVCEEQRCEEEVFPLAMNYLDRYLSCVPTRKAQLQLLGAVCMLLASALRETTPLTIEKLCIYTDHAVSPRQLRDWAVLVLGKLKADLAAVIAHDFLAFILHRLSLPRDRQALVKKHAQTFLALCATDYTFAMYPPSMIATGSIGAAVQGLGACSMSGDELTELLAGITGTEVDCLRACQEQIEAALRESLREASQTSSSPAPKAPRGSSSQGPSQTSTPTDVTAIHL
L7C: 0.146
R5M: 0.232
T13L: 0.151
R5P: 0.125
N2Y: 0.119
R4V: 0.129
N2M: 0.0394
N2K: 0.0564
L7W: 0.0339
S12V: 0.0151
L7K: 0.128
S12A: 0.182
R4H: 0.0876
R5C: 0.056
S12K: 0.119
G11F: 0.105
S6D: 0.152

Series 3 — target: UBE2L6 UBC core domain (UniProt O14933); technique: yeast two-hybrid; matrix: yeast; notes: mostly zero background; baseline: not given; reading: higher = stronger interaction; quantity: lacZ reporter activity
B1: TRIM13 RING domain (UniProt O60858); chain MELLEEDLTCPICCSLFDDPRVLPCSHNFCKKCLEGILEGSVRNSLWRPAPFKCPTCRKETSATGINS
B2: DTX4 RING domain (UniProt Q9Y2E6); chain QKVRHPPDEDCTICMERLTAPSGYKGPQPTVKPDLVGKLSRCGHVYHIYCLVAMYNNGNKDGSLQCPTCKTIYGVKTGTQ
B3: VPS41 RING domain (UniProt P49754); chain KGVLVDEENICESCLSPILPSDAAKPFSVVVFHCRHMFHKECLPMPSMNSAAQFCNICSAKNRGPGSAI
B4: TRIM5 RING domain (UniProt Q9C035); chain ILVNVKEEVTCPICLELLTQPLSLDCGHSFCQACLTANHKKSMLDKGESSCPVCRISYQPENIRP
B5: RNF111 RING domain (UniProt Q6ZNA4); chain EGTEEDTEEKCTICLSILEEGEDVRRLPCMHLFHQVCVDQWLITNKKCPICRVDIEAQLPSE
B6: RC3H1 RING domain (UniProt Q5TC82); chain QAPQWTDFLSCPICTQTFDETIRKPISLGCGHTVCKMCLNKLHRKACPFDQTTINTDIELL
B7: TRIM24 RING domain (UniProt O15164); chain EAARLNLLDTCAVCHQNIQSRAPKLLPCLHSFCQRCLPAPQRYLMLPAPMLGSAETPPPVPAPGSPVSGSSPFATQVGVIRCPVCSQECAERHII
Residues (chain): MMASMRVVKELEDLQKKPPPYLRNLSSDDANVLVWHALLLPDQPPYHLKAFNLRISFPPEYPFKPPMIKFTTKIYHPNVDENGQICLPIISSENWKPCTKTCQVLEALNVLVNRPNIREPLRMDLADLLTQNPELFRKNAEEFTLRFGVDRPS
B1 (TRIM13 RING domain): 0
B2 (DTX4 RING domain): 0
B3 (VPS41 RING domain): 0
ASLPTSEEDLCPICYAHPISAVFQPCGHKSCKACINQHLMNNKDCFFCKTTIVSVEDWE (RNF123 RING domain (UniProt Q5XPI4)): 0
VEPSEENSKDCVVCQNGTVNWVLLPCRHTCLCDGCVKYFQQCPMCRQFVQESFALC (CGRRF1 RING domain (UniProt Q99675)): 0
B4 (TRIM5 RING domain): 0
B5 (RNF111 RING domain): 0
B6 (RC3H1 RING domain): 0
GAAPGPEAAECLVCSELALLVLFSPCQHRTVCEECARRMKKCIRCQVVVSKKLRPD (MIB2 RING domain (UniProt Q96AX9)): 0
B7 (TRIM24 RING domain): 0

Series 4 — technique: protein-binding microarray; form: double-stranded DNA, one strand shown; matrix: in vitro; tested at: 2540 nM top; notes: 60-bp whole probe; with: salmon DNA 0.4 mg/ml; baseline: random background probes; reading: higher = stronger binding; quantity: fitted relative affinity; constant ends, left off below: GCCTAGCAC … GTCTTGATTCGCTTGACGCTGCTG
Target: Interferon regulatory factor 3, full length, phosphomimetic (IRF3, Homo sapiens, UniProt Q14653, residues 1-427, S386D/S396D/S398D/S402D/T404D/S405D)
UniProt Q14653, sequence (whole entry, unmodified, looked up): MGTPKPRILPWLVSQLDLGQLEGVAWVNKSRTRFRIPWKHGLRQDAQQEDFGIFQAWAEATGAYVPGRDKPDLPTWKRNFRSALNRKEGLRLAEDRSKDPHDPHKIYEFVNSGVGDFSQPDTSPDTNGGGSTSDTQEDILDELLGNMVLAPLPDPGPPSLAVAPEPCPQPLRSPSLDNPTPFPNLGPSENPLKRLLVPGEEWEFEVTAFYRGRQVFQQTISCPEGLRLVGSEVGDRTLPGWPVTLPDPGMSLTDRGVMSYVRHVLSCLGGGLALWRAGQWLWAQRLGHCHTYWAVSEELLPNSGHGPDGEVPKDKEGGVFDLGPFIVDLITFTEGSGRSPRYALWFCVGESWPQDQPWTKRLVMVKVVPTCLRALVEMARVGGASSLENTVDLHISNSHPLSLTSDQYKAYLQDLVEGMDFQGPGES
TTAGGTCTCCTAATCCTTTAGTGCTAG: 1.94 z-score
TCATGTGTACATCTCTCACTGTGCTAG: 0.334 z-score
TTAGGACTGCTATTCCTTTAGTGCTAG: -0.262 z-score
GAGCAGAGGCTGATGTATGTGTGCTAG: -1.02 z-score
TCATTTCTCCTTTCCAAACTGTGCTAG: 5.06 z-score
GACCGTCTCCTACTGCTGACGTGCTAG: 1.27 z-score
TTAGATATCGGGTATCAATTAGTGCTA: 0.329 z-score
GACGAACTGAGTTTCGAGACGTGCTAG: 1.22 z-score
TTACATATCAGTCTCGATTAGTGCTAG: 1.61 z-score
TTAGGTACCCTACTGCTTTAGTGCTAG: 1.52 z-score
GCCGGACTGGGTTTCGGGACGTGCTAG: 1.49 z-score
GACGCTTTCGGTTTCGGGACGTGCTAG: 7.74 z-score
TTAGGTATCCTTATCGTTTAGTGCTAG: 5.78 z-score
GATGATTTCAGTATCGAGACGTGCTAG: 1.79 z-score
TCAAATCCCCTTCTACTACTGTGCTAG: 1.98 z-score
TTAGGTTTCGACTTTCGGTTAGTGCTA: 3.97 z-score
TCAACACTCGGTTTCCAACTGTGCTAG: 3.38 z-score
TCATTTTTTACTTCGGGACTGTGCTAG: 1.23 z-score
TTACGTTTCGGTTTCGGTTAGTGCTAG: 10.5 z-score

Series 5 — technique: RNAcompete; form: RNA; matrix: in vitro; tested at: 20 nM; notes: 7-mer, probes averaged, single round; baseline: mean of 7-mers; reading: higher = stronger binding; quantity: 7-mer Z-score
Target: PABPC1L2, full length, GST fusion (mouse, UniProt A0ABA7IW68)
Construct (chain): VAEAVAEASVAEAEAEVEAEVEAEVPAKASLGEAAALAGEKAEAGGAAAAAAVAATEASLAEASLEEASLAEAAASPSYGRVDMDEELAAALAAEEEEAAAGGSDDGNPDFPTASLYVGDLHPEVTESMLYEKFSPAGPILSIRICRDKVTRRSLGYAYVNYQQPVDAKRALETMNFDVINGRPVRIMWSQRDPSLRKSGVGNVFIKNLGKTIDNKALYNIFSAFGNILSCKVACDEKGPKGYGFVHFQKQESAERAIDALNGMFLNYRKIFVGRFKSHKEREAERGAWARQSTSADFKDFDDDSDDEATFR
UGACGGU: -0.0409
CGCAGCG: -0.0591
UUUCAUU: -0.371
CACUUCC: -0.318
CAUUAUU: -0.202
UUACGCG: -0.244
UCGUAGC: -0.349
UUCGUGC: -0.338
UUAACUG: -0.273
AAGAUAC: 0.521
GGGACCU: 0.0805
GAACGUA: -0.0736
GCAUCCA: -0.0337
CUACAUG: -0.13
UUAGCUU: -0.253
AGGAAUA: 0.0406

A few entries again (series 2):
S6D: 0.152
N2K: 0.0564
L7W: 0.0339
R5C: 0.056
S12V: 0.0151
N2M: 0.0394
R5M: 0.232
R4H: 0.0876
G11F: 0.105
S12K: 0.119
L7C: 0.146
L7K: 0.128
T13L: 0.151
